Results collected from several papers.
Several values in a cell are separate wells, animals, samples, runs or records. Numbers after ± are the reported error.

The Cmax of `C[C@]1(CO)Cc2ncn(-c3ccc(C#N)c(Cl)c3)c2C(=O)O1` is reported as 1090 nM (human, Chinese, plasma; 20 mg single dose, geometric mean).
`NCCCC[C@@H]1NC(=O)[C@@H](Cc2c[nH]c3ccccc23)NC(=O)[C@H](c2ccccc2)NC(=O)[C@@H]2C[C@@H](OC(=O)NCCN)CN2C(=O)[C@H](Cc2ccccc2)NC(=O)[C@H](Cc2ccc(OCc3ccccc3)cc2)NC1=O`: “placebo-corrected QTcF change” 12.2 ms (healthy volunteers, male; 1950 µg twice daily, 4.0 h, post hoc).
With `COc1ccnc(C(=O)N[C@H]2COC(=O)[C@H](Cc3ccccc3)[C@@H](OC(=O)C(C)C)[C@H](C)OC2=O)c1OCOC(=O)C(C)C` the DT50 was 2.18 days (sediment, aerobic water/sediment; 20 °C, geometric mean).
The remaining compound of `CC(C)CC(=O)OC[C@H]1O[C@@](C#N)(c2ccc3c(N)ncnn23)[C@H](O)[C@@H]1O` is reported as 48.8 ± 0.628% (Humans plasma; 5 µM, 15 min).
For `C[C@]1(O)C[C@@](N)(c2ccc(-c3nc4n(c3-c3ccccc3)COc3ccncc3-4)cc2)C1`, “patients with grade ≥3 TEAE” read 100% (human, advanced or metastatic solid tumours; 28 mg intermittent, phase I dose escalation).
The plasma concentration of `Cc1ccc(F)c2cc(C(=O)N[C@@H]3CCC[C@H](N4CC[C@H](N(C)S(C)(=O)=O)C4)C3)[nH]c12` is reported as 0.719 ng/mL (CD1 mouse, plasma; oral, 30 mg/kg, 24 h).
Under “patients with vomiting TEAE”, `C=CCNc1c(O)cc2c(O)c1C[C@@H](C)C[C@H](OC)[C@H](O)[C@@H](C)/C=C(\C)[C@H](OC(N)=O)[C@@H](OC)/C=C\C=C(/C)C(=O)N2` is recorded as 34% (unresectable or metastatic STS, GIST, other; intravenous, 400 mg/m^2).
`CN1CC[C@@H](c2c(O)cc(O)c3c(=O)cc(-c4ccc(C(F)(F)F)cc4Cl)oc23)[C@@H]1CO` gave a dizziness incidence of 15% (human, relapsed/refractory hematologic malignancies; oral, dose not given).
Under “patients with adverse event Rash”, `C=CC(=O)Nc1cc(Nc2nccc(Nc3cc(Cl)c(F)cc3C(C)(C)O)n2)c(OC)cc1N1CC[C@@H](N(C)C)C1` is recorded as 44.1% (human; oral, dose not given, phase I clinical).
Under “grade ≥3 Lymphocytopenia incidence”, `CCN1[C@@H](C(=O)NC23CCC(C(=O)O)(CC2)CC3)[C@H](c2cccc(Cl)c2F)[C@]2(C(=O)Nc3cc(Cl)ccc32)C12CCCCC2` is recorded as 18.2% (patients with advanced solid tumours; oral, 100 mg).
For `CN[C@@H](C)C(=O)N[C@H]1CN(S(=O)(=O)c2cccc(S(=O)(=O)N3CC[C@H]4CC[C@@H](C(=O)NC(c5ccccc5)c5ccccc5)N4C(=O)[C@@H](NC(=O)[C@H](C)NC)C3)c2)CC[C@H]2CC[C@@H](C(=O)NC(c3ccccc3)c3ccccc3)N2C1=O`, “treatment-related pruritus incidence” read 0% (patients with advanced solid tumours; 7 mg, phase I monotherapy).
For `O=S(=O)(Nc1ccccc1)c1ccc(NC(=S)Nc2ccccc2)cc1`, “blood chemistry level” read 0.16 mg/dL (item: CREA; male mouse, blood; oral, 20 mg/kg daily, 14 days).
With `CC[C@H](C)[C@H](NC(=O)[C@H](Cc1ccccc1)NC(=O)[C@H](CCC(=O)O)NC(=O)[C@H](CCCNC(=N)N)NC(=O)[C@H](C)NC(=O)[C@H](C)NC(=O)[C@H](CCC(N)=O)NC(=O)[C@H](CCC(=O)O)NC(=O)[C@H](CCC(=O)O)NC(=O)[C@H](CC(C)C)NC(=O)[C@H](Cc1ccc(O)cc1)NC(=O)[C@H](CO)NC(=O)[C@H](CO)NC(=O)[C@@H](NC(=O)[C@H](CC(=O)O)NC(=O)[C@H](CO)NC(=O)[C@@H](NC(=O)[C@H](Cc1ccccc1)NC(=O)[C@@H](NC(=O)CNC(=O)[C@H](CCC(=O)O)NC(=O)[C@H](C)NC(=O)CCc1cnc[nH]1)[C@@H](C)O)[C@@H](C)O)C(C)C)C(=O)N[C@@H](C)C(=O)N[C@@H](Cc1c[nH]c2ccccc12)C(=O)N[C@@H](CC(C)C)C(=O)N[C@H](C(=O)N[C@@H](CCCNC(=N)N)C(=O)NCC(=O)N[C@@H](CCCNC(=N)N)C(=O)N[C@@H](CCCCNC(=O)COCCOCCNC(=O)COCCOCCNC(=O)CC[C@H](NC(=O)CCCCCCCCCCCCCCCCC(=O)O)C(=O)O)C(=O)NCC(=O)NCC(=O)N[C@@H](CO)C(=O)N[C@@H](CCCCNC(=O)[C@H](CCCCNc1c(NCCCCCN(O)C(=O)CCC(=O)NCCCCCN(O)C(=O)CCC(=O)NCCCCCN(O)C(C)=O)c(=O)c1=O)Nc1c(NCCCCCN(O)C(=O)CCC(=O)NCCCCCN(O)C(=O)CCC(=O)NCCCCCN(O)C(C)=O)c(=O)c1=O)C(=O)O)C(C)C` [zirconium-89 labelled] the tissue uptake was 0.082 %ID/g (ex vivo gamma counting; male Sprague-Dawley rats, muscle; intravenous, 1 nmol, 24 h).
`N=C(N)NCCC[C@@H](NC(=O)[C@@H](N)Cc1ccccc1)C(=O)N[C@@H](Cc1ccccc1)C(=O)N[C@@H](CCCCN)C(N)=O` — result for “apparent volume of distribution”: 24.4 L (early Huntington's disease patients, plasma; subcutaneous, 15 mg daily, day 7, median).
Under “QT prolongation incidence”, `CCN1CCN(Cc2ccc(Nc3ncc(F)c(-c4cc(F)c5nc6n(c5c4)[C@H](C)CCC6)n3)nc2)CC1` is recorded as 12.5% (patients with advanced solid tumours; dose not given, phase Ia monotherapy).
`COc1cccc([C@]2(C)CCN(C[C@@H](NC(=O)[C@H]3Cc4ccc(O)cc4CN3)C(C)C)C[C@@H]2C)c1` gave an AUCtotal of 816 ng·h/mL (rat, plasma; intraperitoneal, 5 mg/kg).
For `O=S(=O)([O-])C(F)(F)C(F)(F)C(F)(F)C(F)(F)C(F)(F)C(F)(F)C(F)(F)C(F)(F)F.[K+]`, lipid peroxidation read “no effect” (item: TBARS, MDA; male C57BL/6J mice, liver; concentration not given, EtOH-fed or pair-fed).
Under “patients with grade ≥3 TEAE”, `O=C1Nc2cc3[nH]nc(-c4ccncc4)c3cc2CN1Cc1ccccc1` is recorded as 7% (item: Asthenia; patients with advanced solid tumours; intravenous, dose not given).
For `COc1cccc(Oc2ccccc2NC(=O)CNC(=O)c2cccc3ccccc23)c1`, the serum sodium was 158 mmol/L and 164 mmol/L and 156 mmol/L (esterase-deficient SCID mice, male; oral, 40 mg/kg/day, 14 days, toxicity study).
For `COc1ccc(-c2c(-c3ccc(C#N)c(F)c3)nc(N3CCC(N)CC3)n(C)c2=O)cc1F`, “treatment-related adverse event incidence” read 4% (item: Constipation; human patients; oral, dose not given, any grade, dose escalation, NG).
`N[C@@H]1c2ccccc2OC12CCN(c1cnc3c(N4CCCc5ncccc54)n[nH]c3n1)CC2` has a dose-limiting toxicity of 0% (advanced metastatic solid tumour patients; oral, 60 mg once daily, cycle 1, 21 days).
`C[C@H]1COCCN1c1nc(NCc2cccnc2C(F)(F)F)c2cccnc2n1` gave a PR change of 25.9% (anaesthetized rat; intravenous, 30 mg/kg; baseline: control).
`CN1CCN(S(=O)(=O)c2cc([N+](=O)[O-])ccc2N(CCOS(C)(=O)=O)CCOS(C)(=O)=O)CC1`: “elimination rate constant” 0.00161 s⁻¹ (naive female NSG mice, plasma; intraperitoneal, 5 mg/kg).
For `Cn1ncc(-c2nc(N[C@H]3CC[C@H](N)CC3)ncc2Cl)c1CC1CC1`, “adverse event incidence” read 10% (item: epistaxis grade 3 or higher; human patients phase I; dose not given).
For `CC(=O)c1c(C)c2cnc(Nc3ccc(C4CCN(CCS(C)(=O)=O)CC4)cn3)nc2n(C2CCCC2)c1=O`, the Tmax was 2 h (human patients, plasma; oral, 100 mg twice daily, day 21 multiple doses).
For `O=C(c1ccc(F)c(F)c1Nc1ccc(I)cc1F)N1CC(O)([C@@H]2CCCCN2)C1`, “serious adverse events” read 29% (patients aged 6 to sample A years; oral, dose not given).
`C=CC(=O)N1CC[C@H](n2nc(C#Cc3cc(OC)cc(OC)c3)c3c(N)ncnc32)C1`: “any adverse drug reaction, any grade” 100% (human patients, all; oral, dose not given, QD regimen, adverse drug reaction).
`O=C(Nc1ccccc1)C1CCN(C(=O)Oc2cccnc2)CC1`: “subjects with adverse event” 7.1% (item: musculoskeletal disorders; healthy women; oral, 60 mg, 7 days).
Under “blood urea nitrogen”, `CC(C)C[C@H](NC(=O)[C@H](CCCCN)NC(=O)OCC1c2ccccc2-c2ccccc21)C(=O)N[C@H](C(=O)N[C@@H](Cc1ccccc1)C(=O)N[C@@H](Cc1ccccc1)C(=O)N[C@@H](CCCCN)C(=O)NCC(=O)N[C@@H](Cc1ccccc1)C(=O)N[C@@H](C)C(=O)N[C@@H](Cc1c[nH]c2ccccc12)C(=O)N[C@@H](CC(N)=O)C(=O)N[C@H](C(=O)N[C@H]1CSSC[C@@H](C(=O)N[C@@H](Cc2c[nH]cn2)C(=O)N[C@@H](CCCNC(=N)N)C(=O)N[C@@H](CCCNC(=N)N)C(=O)N[C@@H](C)C(=O)N[C@@H](CC(N)=O)C(N)=O)NC(=O)[C@H](C(C)C)NC(=O)[C@H](CCCNC(=N)N)NC(=O)[C@H](C(C)C)NC(=O)CNC(=O)[C@H](CC(N)=O)NC(=O)[C@H](CCCNC(=N)N)NC(=O)[C@H](Cc2ccc(O)cc2)NC(=O)[C@H](C(C)C)NC1=O)C(C)C)C(C)C` is recorded as 10.4 ± 0.74 mmol/L (ICR mouse, serum; ip, 5 mg/kg, 3 d dosing, blood day 5).
The TRAE incidence of `CO[C@H]1C[C@@H]2CC[C@@H](C)[C@@](O)(O2)C(=O)C(=O)N2CCCC[C@H]2C(=O)O[C@H]([C@H](C)C[C@@H]2CC[C@@H](OC(=O)NCCOCCOCCOCCOCCOCCOCCOCCOCCC(=O)N3CCc4cc(Cn5nc(-c6ccc7oc(N)nc7c6)c6c(N)ncnc65)ccc4C3)[C@H](OC)C2)C[C@@H](O)[C@H](C)/C=C(\C)[C@@H](O)[C@@H](OC)C(=O)[C@H](C)C[C@H](C)/C=C/C=C/C=C/1C` is reported as 37.5% (phase 1 dose escalation, item: diarrhoea; advanced solid tumour patients; intravenous, 10 mg weekly, any grade).
`CCS(=O)(=O)Nc1ccc(Oc2ccc(F)cc2F)c(-c2cn(C)c(=O)c3[nH]ccc23)c1`: “treatment-emergent adverse events” 0% (malignant neoplasm progression leading to discontinuation; human, relapsed/refractory AML; oral, dose not given).
`COc1ncccc1-c1cnn2ccc(N3CCN(C(=O)OC(C)C)CC3)nc12` has a drug concentration of 9.9 µM (mouse nerve ligation model, brain; oral, 10 mg/kg, 30 min after last dose, repeat dosing day 3).
`COc1cc2c(Oc3ccc4[nH]c(C)cc4c3F)ccnc2cc1OCC1(N)CC1`: “dose-limiting toxicity incidence” 5.9% (sarcoma, recurrent or refractory, high-risk, paediatric; dose not given).
The AUC(0-12) of `O[C@H]1CCCN[C@@H]1CCCn1cnc2c(Cl)c(Cl)ccc21` is reported as 679 ng·h/mL (healthy humans, plasma; oral, 150 mg single dose).
`CCc1ccc(CC/C=C/c2ccc3c(c2)C(=O)CC3)cc1` — result for “platelet distribution width”: 49.4% (Sprague-Dawley rat, female, blood; oral, 120 mg/kg/day, 14 days).
`C[C@@H]1NC(=O)[C@H](CCCCNC(=O)CO/N=C/C(=O)NCCCC[C@@H]2NC(=O)[C@@H](Cc3ccccc3)NC(=O)[C@H](CC(=O)O)NC(=O)CNC(=O)[C@H](CCCNC(=N)N)NC2=O)NC(=O)CNC(=O)[C@@H]2CCCN2C(=O)[C@H](CCCCNC(=O)CO/N=C/C(=O)NCCCC[C@@H]2NC(=O)[C@@H](Cc3ccccc3)NC(=O)[C@H](CC(=O)O)NC(=O)CNC(=O)[C@H](CCCNC(=N)N)NC2=O)NC(=O)[C@H](CCCCNC(=O)CN2CCCNCCNCCCNCC2)NC(=O)[C@H](CCCCNC(=O)CO/N=C/C(=O)NCCCC[C@@H]2NC(=O)[C@@H](Cc3ccccc3)NC(=O)[C@H](CC(=O)O)NC(=O)CNC(=O)[C@H](CCCNC(=N)N)NC2=O)NC(=O)CNC(=O)[C@@H]2CCCN2C(=O)[C@H](CCCCNC(=O)CO/N=C/C(=O)NCCCC[C@@H]2NC(=O)[C@@H](Cc3ccccc3)NC(=O)[C@H](CC(=O)O)NC(=O)CNC(=O)[C@H](CCCNC(=N)N)NC2=O)NC1=O` [copper-64 labelled] gave a tissue uptake of 0.27 ± 0.02 %ID/g (normal mice, muscle; intravenous, 0.74 MBq, 24 h post-injection).

Repeated from above:
`C[C@H]1COCCN1c1nc(NCc2cccnc2C(F)(F)F)c2cccnc2n1` gave a PR change of 25.9% (anaesthetized rat; intravenous, 30 mg/kg; baseline: control).
Under “blood urea nitrogen”, `CC(C)C[C@H](NC(=O)[C@H](CCCCN)NC(=O)OCC1c2ccccc2-c2ccccc21)C(=O)N[C@H](C(=O)N[C@@H](Cc1ccccc1)C(=O)N[C@@H](Cc1ccccc1)C(=O)N[C@@H](CCCCN)C(=O)NCC(=O)N[C@@H](Cc1ccccc1)C(=O)N[C@@H](C)C(=O)N[C@@H](Cc1c[nH]c2ccccc12)C(=O)N[C@@H](CC(N)=O)C(=O)N[C@H](C(=O)N[C@H]1CSSC[C@@H](C(=O)N[C@@H](Cc2c[nH]cn2)C(=O)N[C@@H](CCCNC(=N)N)C(=O)N[C@@H](CCCNC(=N)N)C(=O)N[C@@H](C)C(=O)N[C@@H](CC(N)=O)C(N)=O)NC(=O)[C@H](C(C)C)NC(=O)[C@H](CCCNC(=N)N)NC(=O)[C@H](C(C)C)NC(=O)CNC(=O)[C@H](CC(N)=O)NC(=O)[C@H](CCCNC(=N)N)NC(=O)[C@H](Cc2ccc(O)cc2)NC(=O)[C@H](C(C)C)NC1=O)C(C)C)C(C)C` is recorded as 10.4 ± 0.74 mmol/L (ICR mouse, serum; ip, 5 mg/kg, 3 d dosing, blood day 5).
For `Cn1ncc(-c2nc(N[C@H]3CC[C@H](N)CC3)ncc2Cl)c1CC1CC1`, “adverse event incidence” read 10% (item: epistaxis grade 3 or higher; human patients phase I; dose not given).
